Assay results pooled from the literature.
Protocols differ between the studies behind these lines. “And” joins repeats or separate records; there may be more than shown. ± gives the spread as reported.

The latency change of C[C@H](Oc1ccc(Br)cc1-c1ccon1)C(=O)O is reported as -0.07% (muscle velocity recovery cycles; human, tibialis anterior muscle; 600 mg once daily, multiple doses, 30 Hz train for 30 s; reference: placebo).
N#Cc1ccc2c(-c3ccncc3)c(-c3ccc(F)cc3)nn2c1 — result for “log2 fold change”: -0.718 (kinase binding, competitor, MIB/MS competition, item: TOR1; Candida albicans cell lysate; 1 µM; reference: DMSO).
CCn1cc(-c2cc(Cn3ccnc3)cc3c2CCN([C@H](c2cc(OC)ccn2)C2CC2)C3=O)c(C(F)(F)F)n1 gave an EC50 of 172 nM (Li-7; cell growth, inhibitor; 120 h).
The cell protection of CC(C)n1ncc2c(C(=O)NCC3(C)CNC3)cc(C3CC3)nc21 is reported as -1.22% and -0.946% and -0.811% (Enterovirus D68; cytopathic effect; RD, US/IL/14-18952; 15 nM).
With COc1cc2c(cc1Nc1nc(N3CCc4ccccc43)c3cc[nH]c3n1)N(C(=O)CN(C)C)CC2 the selectivity was 1.4 (Trypanosoma brucei; unit not given; reference: pEC50 T. brucei minus pTC50 HepG2).
For Cc1cccn2c(=O)c(/C=C3\SC(=S)N(CC(C)C)C3=O)c(NCCCOC(C)C)nc12, the maximal activity was 48% (Mus musculus; gene silencing, high-content imaging; LDR reporter GFP cells; retest run 1).
COc1cc2c(cc1Nc1nc(Nc3ccsc3C(N)=O)c3cc[nH]c3n1)N(C(=O)CN(C)C)CCC2 gave a selectivity of 1.4 (Trypanosoma brucei; unit not given; reference: pEC50 T. brucei minus pTC50 HepG2).
CCN(CC)C(=S)SSC(=S)N(CC)CC gave a maximal activity of 130% (Mus musculus; gene silencing, high-content imaging; LDR reporter GFP cells; retest run 1).
COc1cc(OC)c(/C=C/S(=O)(=O)Cc2ccc(OC)c(NCC(=O)O)c2)c(OC)c1 gave an EC50 of over 3000 nM (Trypanosoma brucei; cell growth).
With S=C(Nc1ccccc1)c1ccccn1 the maximal activity was 110% (Mus musculus; gene silencing, high-content imaging; LDR reporter GFP cells; retest run 2).
For CCCN1CCC=C(c2ccc(Nc3nc(Nc4ccccc4C(N)=O)c4cc[nH]c4n3)c(C)c2)C1, the selectivity was 1.3 (Trypanosoma brucei; unit not given; reference: pEC50 T. brucei minus pTC50 HepG2).
For Cn1cc(-c2ccc(-c3cncc(Cl)c3N3CCC4(CCNC4=O)CC3)cc2)cn1, “log2 fold change” read 2.77 (COLO 205; gene expression, microarray, item: MIA mRNA; concentration not given, 2 h; reference: untreated cells).
With CN(Cc1cccnc1)C(=O)c1ccc([C@H]2[C@@H](F)[C@@H](F)C[C@@H](F)[C@H]2F)cc1 the hepatic clearance was 53 mL/min/kg (hepatocyte stability; cryopreserved mouse hepatocytes; 1 µM).
c1coc(-c2n[nH]cc2-c2ccnc3ccccc23)c1: “log2 fold change” -0.07 (AKL1 (Candida albicans); kinase binding, MIB/MS competition; Candida albicans lysate; 10 µM; reference: DMSO).
CC(C)NCC(O)c1ccc(O)c(O)c1 (stereo not drawn) gave a sarcomere length of 1.58 µm (ventricular cardiomyocytes, C57BL/6 mouse; dose not given, 0.812 s).
CN(C)S(=O)(=O)c1cccc(NC(=S)N/N=C/c2ccco2)c1 gave a maximal activity of 37% (Mus musculus; gene silencing, high-content imaging; LDR reporter GFP cells; retest run 1).
With COCCN(C)C(=O)c1ccc(C2CCCCC2)cc1 the hepatic clearance was 17 mL/min/kg (hepatocyte stability; cryopreserved human hepatocytes; 1 µM).
CC(C)C[C@@H](C=O)NC(=O)[C@H](CC(C)C)NC(=O)[C@H](CC(C)C)NC(=O)OCc1ccccc1 gave an Emax of 139% (Mus musculus; gene silencing, high-content imaging; LDR reporter GFP cells; 30 h, retest run 1).
CN1CCC(C(=O)Nc2n[nH]c3nc(-c4ccc(O)cc4)c(Br)cc23)CC1.O=C(O)/C=C\C(=O)O gave an inhibition of 100% (Trypanosoma brucei brucei; parasite growth, inhibitor; concentration not given, PKIS high-throughput screen).
O=C(Cn1c(=O)n(Cc2ccc(F)cc2)c(=O)c2sc3ccccc3c21)Nc1ccc(F)cc1F has a maximal activity of 65% (Mus musculus; gene silencing, high-content imaging; LDR reporter GFP cells; retest run 1).
For CC(C)C[C@H](NC(=O)C[C@H](O)[C@H](CC(C)C)NC(=O)[C@H](Cc1c[nH]cn1)NC(=O)CNC(=O)[C@@H](NC(=O)[C@H](C)NC(=O)[C@H](Cc1c[nH]c2ccccc12)NC(=O)[C@H](CCC(N)=O)NC(=O)[C@@H](Cc1ccccc1)NC(=O)COCCOCCNC(=O)CCC(C(=O)O)N1CCN(CC(=O)O)CCN(CC(=O)O)CCN(CC(=O)O)CC1)C(C)C)C(N)=O (stereo partly drawn) [lutetium-177 labelled], the tissue uptake was 0.4 ± 0.1 %ID/g (BALB/c nu/nu mice, skin; intravenous, 250 pmol, 1 h, together with: PA 300 µg).
[O-][S+]1CCN(Cc2ccc(-c3ccc4ncnc(Nc5ccc(OCc6ccccc6)c(Cl)c5)c4c3)o2)CC1 has a selectivity of over 2.2 (Trypanosoma brucei; unit not given; reference: pEC50 T. brucei minus pTC50 HepG2).
With COc1ccc(C(=O)/C=C/Sc2nc3ccccc3o2)cc1 the maximal activity was 45% (Mus musculus; gene silencing, high-content imaging; LDR reporter GFP cells; retest run 2).
CS(=O)(=O)CCNCc1nc(-c2ccc3ncnc(Nc4ccc(OCc5cccc(C(F)(F)F)c5)cc4)c3c2)cs1 has a selectivity of over 1.5 (Trypanosoma brucei; unit not given; reference: pEC50 T. brucei minus pTC50 HepG2).
COc1cnc2cccc(N3CCc4c(cc(Cn5ccnc5C)cc4-c4cn(C)nc4C(F)(F)F)C3=O)c2c1 gave an EC50 of 1190 nM (COLO-741; cell growth, inhibitor; 120 h).
CC1=C(C(=O)Nc2ccc3[nH]ncc3c2)C(c2ccc(Cl)c(Cl)c2)CC(=O)N1 (stereo not drawn) gave a selectivity of over 0.6 (Trypanosoma brucei; unit not given; reference: pEC50 T. brucei minus pTC50 HepG2).
Oc1ccccc1-c1n[nH]cc1-c1ccnc2ccccc12 — result for “log2 fold change”: -0.11 (CTK1 (Candida albicans); kinase binding, MIB/MS competition; Candida albicans lysate; 10 µM; reference: DMSO).

Excerpt of the above:
CN1CCC(C(=O)Nc2n[nH]c3nc(-c4ccc(O)cc4)c(Br)cc23)CC1.O=C(O)/C=C\C(=O)O gave an inhibition of 100% (Trypanosoma brucei brucei; parasite growth, inhibitor; concentration not given, PKIS high-throughput screen).
O=C(Cn1c(=O)n(Cc2ccc(F)cc2)c(=O)c2sc3ccccc3c21)Nc1ccc(F)cc1F has a maximal activity of 65% (Mus musculus; gene silencing, high-content imaging; LDR reporter GFP cells; retest run 1).
